Published values from different studies.
Every numbered part comes from another study and shows a few of its results, in no order.

Series 1
Target: RING finger protein unkempt homolog, zinc fingers 1-6, GST-SBP tag (UNK, Homo sapiens, UniProt Q9C0B0, residues 30-357)
Chain of UniProt Q9C0B0 (30-357, looked up): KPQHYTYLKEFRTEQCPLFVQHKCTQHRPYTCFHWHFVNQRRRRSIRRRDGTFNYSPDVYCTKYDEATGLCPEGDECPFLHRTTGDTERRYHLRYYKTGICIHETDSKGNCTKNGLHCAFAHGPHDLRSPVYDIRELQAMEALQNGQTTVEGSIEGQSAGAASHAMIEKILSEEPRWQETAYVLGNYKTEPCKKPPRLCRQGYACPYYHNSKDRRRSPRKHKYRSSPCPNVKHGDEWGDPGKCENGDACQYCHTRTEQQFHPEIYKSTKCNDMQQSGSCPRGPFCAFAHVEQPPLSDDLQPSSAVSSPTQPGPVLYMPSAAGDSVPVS
Method: RNA Bind-n-Seq
Form: RNA
Medium: in vitro
Tested at: not given
Notes: RNA with constant flanks, human and mouse sites, ends assumed
Baseline: input RNA pool
Direction: higher = stronger binding
`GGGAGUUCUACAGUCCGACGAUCAAUAACAGGGCCAGGCACAGGGCCAAGCGAGAAGCUUGCAUUGAUUUCAUGCCUGGGUCUAUAGAUGUAAUUAAAAAAGAGUCCUGUUUCUGGCCUGAAGAAAAUGCUAAUACCUUUUCACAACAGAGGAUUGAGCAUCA` has a bound/input enrichment of 0.419 ratio.
`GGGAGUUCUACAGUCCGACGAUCCGAAUGUUUGCUUACUUCCGACGCAAUGCAGCCACGUGGAAGAAUGCAGUGCGUCAUAAUCUUAGUCUCCACAAGUGUUUUGUGCGAGUAGAGAACGUUAAAGGGGCAGUAUGGACAGUGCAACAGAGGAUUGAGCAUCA` has a bound/input enrichment of 1.19 ratio.
With `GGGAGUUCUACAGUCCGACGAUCGAUUCAUUGCCUGCUUUACUGGAAUUCUACAAAAUACACUAUUUGGACACUACAACAUUGAUAGAACCAGUGGCCAGAUCAAGGCAGGGUAGUGGAGUGAUUCUCAGGCAGGAGGAGGCACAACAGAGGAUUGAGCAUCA` the bound/input enrichment was 0.355 ratio.
For `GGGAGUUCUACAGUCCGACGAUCAGUGGCUCAGAUGACCUCUUAAUAAAAUGUGAAGAAUAUGAUGGAGAGCAUGACUGUAUGUUCUUGGAUCCACCAUACUCAAGAGUUAUUACACAAAGGGAAACAGAAAAUAACCAAAUGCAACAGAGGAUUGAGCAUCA`, the bound/input enrichment was 0.154 ratio.
The bound/input enrichment of `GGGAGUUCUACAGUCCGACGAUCGCCAUGACGCUGAAUGAGAGCAACAUCUCUGCUGUCACCGGACUUAUCCGAUGUCAGUUAAUAGAGGGGCAGUUGCAAGAUGCAGACCAGCAGUUGGAGUUCUUCAGUGAAUUCCAGCAGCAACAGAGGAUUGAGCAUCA` is reported as 0.208 ratio.
`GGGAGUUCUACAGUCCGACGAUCCACCUGCAGGAUAUUAAAGUGAAAUUUUCUGACCCUGGACAGCCUAUGUCUUUUGUGUUAGAGUUCCACUUUGAACCCAACGACUACUUUACCAACUCAGUCCUGACAAAAACCUACAAGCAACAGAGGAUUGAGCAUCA` gave a bound/input enrichment of 0.156 ratio.
`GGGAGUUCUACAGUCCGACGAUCCAUCUACUCUAACUUCAUUUGGAAGGCUUGUCUAGAGUAUAGCAUGUAUUUUUACCUUUGCAGUGAAUUGCAUGUGCUAAUUGUAACCACAGCUAUUUUUAUGUUGACAUAACUCCAAAUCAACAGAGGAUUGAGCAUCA` gave a bound/input enrichment of 0.254 ratio.
For `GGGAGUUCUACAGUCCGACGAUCGCAGAAUACCCCGAUGAAUAUCAUGGCGAGUACCCAGACGACUACCCUCGGGAGUACCAGUAUGGCGACGACCAGGGCAUUGAUUAUUAGAGUCACACACAGGAGCGCAGUAUUUAGUCCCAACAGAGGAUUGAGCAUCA`, the bound/input enrichment was 0.338 ratio.

Series 2
Target: Prothrombin, mature alpha-thrombin (F2, Homo sapiens, UniProt P00734)
Method: aptamer microarray, sandwich
Form: DNA with 2'F-ANA
Medium: in vitro
Tested at: 200 nM
Notes: whole 15-mer aptamer, many near background
Together with: Cy3 exosite-II aptamer, 400 nM
Direction: higher = stronger binding
Sequence: GGTTGGTGTGGTTGG
For `2'F-ANA at 5 7 8 9 10 12 13`, “mean fluorescence intensity” read 49.6 a.u.
`2'F-ANA at 1 3 4 5 6 11 12`: “mean fluorescence intensity” 84.9 a.u.
`2'F-ANA at 3 10 11 12 13 15`: “mean fluorescence intensity” 620 a.u.
`2'F-ANA at 1 3 6 12` — result for “mean fluorescence intensity”: 504 a.u.
`2'F-ANA at 1 7 9 11 12 14`: “mean fluorescence intensity” 66.7 a.u.
`2'F-ANA at 2 4 5 6 9 10 12 14`: “mean fluorescence intensity” 46 a.u.
Under “mean fluorescence intensity”, `2'F-ANA at 2 5 6 8 9 11 13` is recorded as 56.4 a.u.
For `2'F-ANA at 3 6 8 10 14`, “mean fluorescence intensity” read 420 a.u.
For `2'F-ANA at 3 5 6 10 12 14`, “mean fluorescence intensity” read 51.2 a.u.
Under “mean fluorescence intensity”, `2'F-ANA at 2 3 4 6 10 11 13 14 15` is recorded as 124 a.u.
`2'F-ANA at 2 10 14 15` — result for “mean fluorescence intensity”: 110 a.u.
`2'F-ANA at 1 2 3 4 7 8 9 10 12 15` — result for “mean fluorescence intensity”: 84.5 a.u.
`2'F-ANA at 1 3 6 8 11 14`: “mean fluorescence intensity” 84.8 a.u.
Under “mean fluorescence intensity”, `2'F-ANA at 1 3 4 5 9 11 12` is recorded as 101 a.u.
Under “mean fluorescence intensity”, `2'F-ANA at 2 4 6 7 9 11 14 15` is recorded as 74.3 a.u.
For `2'F-ANA at 1 2 3 4 7 8 9 10 11 13 15`, “mean fluorescence intensity” read 64.2 a.u.
`2'F-ANA at 7 11 15`: “mean fluorescence intensity” 528 a.u.

Series 3
Target: Interferon regulatory factor 7, full length, phosphomimetic (IRF7, Homo sapiens, UniProt Q92985, residues 1-503, S101K/S471D/S472D/S475D/S476D/S477D/S483D/S484D/S487D)
Method: protein-binding microarray
Form: double-stranded DNA, one strand shown
Medium: in vitro
Tested at: 250 nM
Notes: 60-bp whole probe
Together with: salmon DNA 0.4 mg/ml
Baseline: random background probes
Direction: higher = stronger binding
Shared flanks, not repeated: GCCTAGCAC … GTCTTGATTCGCTTGACGCTGCTG
Residues (chain): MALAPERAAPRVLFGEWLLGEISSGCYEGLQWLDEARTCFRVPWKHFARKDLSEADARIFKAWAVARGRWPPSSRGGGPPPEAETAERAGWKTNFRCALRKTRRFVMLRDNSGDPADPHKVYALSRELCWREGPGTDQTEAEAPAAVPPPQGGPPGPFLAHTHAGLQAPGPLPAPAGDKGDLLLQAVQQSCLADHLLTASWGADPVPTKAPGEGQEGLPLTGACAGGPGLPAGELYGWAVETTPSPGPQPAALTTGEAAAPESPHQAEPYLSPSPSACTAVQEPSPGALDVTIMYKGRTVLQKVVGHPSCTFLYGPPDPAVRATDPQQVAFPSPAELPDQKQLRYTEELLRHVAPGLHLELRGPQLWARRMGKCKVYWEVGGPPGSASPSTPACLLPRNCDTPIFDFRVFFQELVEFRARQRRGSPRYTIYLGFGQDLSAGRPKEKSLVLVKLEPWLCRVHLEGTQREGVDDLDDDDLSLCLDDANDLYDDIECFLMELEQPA
For `TCCAGGGCGGTGGGTGGCCCGTGCTAG`, the log fluorescence was -1.2 z-score.
The log fluorescence of `GACGGTATCCTACTGCTGACGTGCTAG` is reported as -0.237 z-score.
The log fluorescence of `GACGGTTTCGGTAGCGGGACGTGCTAG` is reported as 3.52 z-score.
With `GACGGTATCGGGACTAGGGACGTGCTA` the log fluorescence was -0.319 z-score.
`GACGATTTCAGTTCCGAGATGTGCTAG` has a log fluorescence of 0.749 z-score.
`TTAGATATCAGTTTCTATTAGTGCTAG` gave a log fluorescence of 3.34 z-score.
`GACGATAACAGTATCGAGACGTGCTAG` gave a log fluorescence of 0.113 z-score.
With `GTAGATTTCGGGTTTCGATTAGTGCTA` the log fluorescence was 7.5 z-score.
`CTAGATCTCAGTATCGATTAGTGCTAG` gave a log fluorescence of 1.21 z-score.
The log fluorescence of `TTAGATTTCGGGTTTCGATGAGTGCTA` is reported as 3.05 z-score.
`TTCTATCTCTGTTTTTGCTTGTGCTAG` has a log fluorescence of 0.635 z-score.
`TTAGGTTTCGGGACTGGGTGAGTGCTA` has a log fluorescence of 3.55 z-score.
`TTAGATTTCGACTATCGGTTAGTGCTA` has a log fluorescence of 0.748 z-score.
`GACGATCTCGGGACTGGAGACGTGCTA` gave a log fluorescence of -0.357 z-score.
With `GACGGTTTCGGACTGGGGTCGTGCTAG` the log fluorescence was 4.12 z-score.
With `GACGATAGCAGTATCGAGACGTGCTAG` the log fluorescence was -0.49 z-score.
For `GAAGATATCGGGTATCGAGACGTGCTA`, the log fluorescence was -0.0403 z-score.
For `GACGGTATCAACACTGGGGACGTGCTA`, the log fluorescence was -0.515 z-score.
With `GACGGTTTCGTTTCCGGGACGTGCTAG` the log fluorescence was 12.2 z-score.

Series 4
Target: Ras GTPase-activating protein-binding protein 1, RRM domain (G3BP1, Homo sapiens, UniProt Q13283)
Chain of UniProt Q13283 (whole entry, looked up): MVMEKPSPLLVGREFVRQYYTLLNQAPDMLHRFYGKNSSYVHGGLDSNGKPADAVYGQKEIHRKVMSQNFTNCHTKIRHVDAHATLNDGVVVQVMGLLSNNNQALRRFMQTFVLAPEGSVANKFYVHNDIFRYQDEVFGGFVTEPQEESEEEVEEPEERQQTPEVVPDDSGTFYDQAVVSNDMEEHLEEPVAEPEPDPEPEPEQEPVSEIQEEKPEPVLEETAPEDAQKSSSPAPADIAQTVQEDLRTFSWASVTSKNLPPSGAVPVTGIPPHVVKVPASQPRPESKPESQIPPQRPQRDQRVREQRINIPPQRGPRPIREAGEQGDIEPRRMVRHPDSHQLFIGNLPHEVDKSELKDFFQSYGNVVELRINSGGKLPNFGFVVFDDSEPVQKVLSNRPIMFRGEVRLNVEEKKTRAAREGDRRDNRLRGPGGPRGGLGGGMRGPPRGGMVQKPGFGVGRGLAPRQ
Method: RNA Bind-n-Seq
Form: RNA
Medium: in vitro
Tested at: 1 µM
Notes: whole 134-nt RNA, ends assumed
Together with: 150 mM KCl
Baseline: input library
Direction: higher = stronger binding
With `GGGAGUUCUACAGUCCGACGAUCCCUCAAGUCCUGUGCUACACAUCGUAUGUACCGAAUCGGAAGGGAAGGAAGGAAAGUAUUAUGUUACGCCGUUCGGAUCUGCACUUCCAGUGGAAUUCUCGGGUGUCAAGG` the log2 enrichment was -0.28.
`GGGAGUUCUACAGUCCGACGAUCCCUGUGCUACACAUCGUAUGUACCGAAUCGGGUUUUUUGGGGUUUUUUGGGGUUUUUUGGGAAAGUAUUAUGUUACGCCGUUCGGAUCUGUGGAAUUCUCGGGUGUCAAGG` gave a log2 enrichment of -0.143.
`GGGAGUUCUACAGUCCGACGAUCUCUCCCAUCAAAGGACGUGCACAGCCUUAUGAUCCCAAUUUUUACGAUGAAACCUAUGAUUAUGGUGGUUUUACAAUGAUGUUUGAUGACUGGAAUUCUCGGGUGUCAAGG` gave a log2 enrichment of 0.0572.
`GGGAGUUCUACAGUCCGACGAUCCACAGACUACACGCACCCACACAGACACAGAGGGAAGGGGUUGGGAUGGGGACAGGGUGCACAGCAGGGCGGGGUAGGACCCCAGCCCCUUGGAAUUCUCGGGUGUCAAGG` gave a log2 enrichment of -0.155.
`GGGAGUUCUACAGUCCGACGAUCUGUGCUACACAUCGUAUGUACCGAAUCGGGGAAAAAAAGGGAAAAAAAGGGAAAAAAAGGGGAAAGUAUUAUGUUACGCCGUUCGGAUCUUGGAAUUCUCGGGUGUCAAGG` has a log2 enrichment of 0.243.
For `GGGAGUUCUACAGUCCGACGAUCGUCCUGUGCUACACAUCGUAUGUACCGAAUCGGGGAGGGGUUUUUGGGGUUUUUGGGGAAAGUAUUAUGUUACGCCGUUCGGAUCUGCACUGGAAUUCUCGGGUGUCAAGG`, the log2 enrichment was 0.97.
The log2 enrichment of `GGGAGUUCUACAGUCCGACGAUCUCCUGUGCUACACAUCGUAUGUACCGAAUCGGGAAAAAGGGUUUUUGGGUUUUUUUGGGAAAGUAUUAUGUUACGCCGUUCGGAUCUGCAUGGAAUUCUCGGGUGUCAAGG` is reported as -0.0851.
`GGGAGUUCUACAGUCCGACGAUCAGUCCUGUGCUACACAUCGUAUGUACCGAAUCGGAAAAAAAGGUUUUUUUGGAAAGGAAAGUAUUAUGUUACGCCGUUCGGAUCUGCACUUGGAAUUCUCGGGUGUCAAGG` has a log2 enrichment of -0.346.
`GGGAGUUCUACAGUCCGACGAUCCCUCAAGUCCUGUGCUACACAUCGUAUGUACCGAAUCGGGAGGAGGGGAGGGAAAGUAUUAUGUUACGCCGUUCGGAUCUGCACUUCCAGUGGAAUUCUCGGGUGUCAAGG` gave a log2 enrichment of 0.455.

A few entries again (series 2):
For `2'F-ANA at 3 6 8 10 14`, “mean fluorescence intensity” read 420 a.u.
For `2'F-ANA at 3 5 6 10 12 14`, “mean fluorescence intensity” read 51.2 a.u.
Under “mean fluorescence intensity”, `2'F-ANA at 2 3 4 6 10 11 13 14 15` is recorded as 124 a.u.
`2'F-ANA at 2 10 14 15` — result for “mean fluorescence intensity”: 110 a.u.
`2'F-ANA at 1 2 3 4 7 8 9 10 12 15` — result for “mean fluorescence intensity”: 84.5 a.u.
